{"data": "Measured values collected from several papers", "note": "Every numbered part comes from another study and shows a few of its results, in no order. Positions count from the first letter of the parent shown.", "chain of UniProt Q9LQE8 (whole entry, looked up)": "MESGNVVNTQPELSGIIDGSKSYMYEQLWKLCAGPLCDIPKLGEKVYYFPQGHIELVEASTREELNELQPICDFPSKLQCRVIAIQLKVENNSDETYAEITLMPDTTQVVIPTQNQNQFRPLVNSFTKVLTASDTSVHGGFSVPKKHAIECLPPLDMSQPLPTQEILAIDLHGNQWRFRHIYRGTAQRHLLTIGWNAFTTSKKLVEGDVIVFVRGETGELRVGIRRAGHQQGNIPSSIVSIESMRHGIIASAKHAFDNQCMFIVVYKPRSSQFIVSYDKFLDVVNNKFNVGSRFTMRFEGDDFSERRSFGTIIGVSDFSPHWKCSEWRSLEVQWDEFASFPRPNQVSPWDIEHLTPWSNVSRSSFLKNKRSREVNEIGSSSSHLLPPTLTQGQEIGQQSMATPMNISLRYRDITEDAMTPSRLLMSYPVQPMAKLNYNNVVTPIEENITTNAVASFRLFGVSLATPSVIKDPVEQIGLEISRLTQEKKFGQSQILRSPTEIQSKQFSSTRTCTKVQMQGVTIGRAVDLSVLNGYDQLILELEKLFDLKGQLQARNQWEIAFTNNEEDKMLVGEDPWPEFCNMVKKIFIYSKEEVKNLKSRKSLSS", "chain of UniProt P62256 (whole entry, looked up)": "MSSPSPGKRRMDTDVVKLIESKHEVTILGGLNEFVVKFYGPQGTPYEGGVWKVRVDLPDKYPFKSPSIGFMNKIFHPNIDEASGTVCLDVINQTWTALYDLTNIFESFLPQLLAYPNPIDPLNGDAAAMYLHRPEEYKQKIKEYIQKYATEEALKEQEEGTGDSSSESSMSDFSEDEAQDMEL", "chain of UniProt Q8WVN8 (whole entry, looked up)": "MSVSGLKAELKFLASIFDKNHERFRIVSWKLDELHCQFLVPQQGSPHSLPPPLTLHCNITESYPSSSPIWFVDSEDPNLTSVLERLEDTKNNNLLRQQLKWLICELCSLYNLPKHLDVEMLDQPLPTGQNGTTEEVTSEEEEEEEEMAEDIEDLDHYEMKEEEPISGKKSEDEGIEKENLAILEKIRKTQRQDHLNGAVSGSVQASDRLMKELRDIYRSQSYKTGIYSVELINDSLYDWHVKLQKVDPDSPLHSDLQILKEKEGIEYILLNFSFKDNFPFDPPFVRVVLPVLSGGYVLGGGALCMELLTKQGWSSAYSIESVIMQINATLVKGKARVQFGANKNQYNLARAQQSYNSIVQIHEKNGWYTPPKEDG", "chain of UniProt P49427 (whole entry, looked up)": "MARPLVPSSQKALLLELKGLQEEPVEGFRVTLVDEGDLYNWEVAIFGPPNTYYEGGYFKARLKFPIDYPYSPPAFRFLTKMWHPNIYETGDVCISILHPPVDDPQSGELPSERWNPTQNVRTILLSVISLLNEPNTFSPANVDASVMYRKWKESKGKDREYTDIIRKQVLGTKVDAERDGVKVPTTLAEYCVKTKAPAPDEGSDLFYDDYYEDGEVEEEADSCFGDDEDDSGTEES", "chain of UniProt Q96LR5 (whole entry, looked up)": "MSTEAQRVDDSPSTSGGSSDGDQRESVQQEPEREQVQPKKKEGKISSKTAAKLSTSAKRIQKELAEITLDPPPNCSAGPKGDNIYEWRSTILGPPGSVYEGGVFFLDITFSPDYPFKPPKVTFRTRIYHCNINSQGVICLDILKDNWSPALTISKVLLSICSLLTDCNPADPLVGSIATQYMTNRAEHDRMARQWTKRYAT", "chain of UniProt Q8RYC6 (whole entry, looked up)": "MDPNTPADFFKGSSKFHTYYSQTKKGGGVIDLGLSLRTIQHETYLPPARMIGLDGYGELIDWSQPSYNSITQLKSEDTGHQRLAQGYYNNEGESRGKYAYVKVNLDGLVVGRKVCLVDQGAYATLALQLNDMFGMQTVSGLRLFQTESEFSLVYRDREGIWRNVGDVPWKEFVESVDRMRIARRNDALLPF", "chain of UniProt Q5VVX9 (whole entry, looked up)": "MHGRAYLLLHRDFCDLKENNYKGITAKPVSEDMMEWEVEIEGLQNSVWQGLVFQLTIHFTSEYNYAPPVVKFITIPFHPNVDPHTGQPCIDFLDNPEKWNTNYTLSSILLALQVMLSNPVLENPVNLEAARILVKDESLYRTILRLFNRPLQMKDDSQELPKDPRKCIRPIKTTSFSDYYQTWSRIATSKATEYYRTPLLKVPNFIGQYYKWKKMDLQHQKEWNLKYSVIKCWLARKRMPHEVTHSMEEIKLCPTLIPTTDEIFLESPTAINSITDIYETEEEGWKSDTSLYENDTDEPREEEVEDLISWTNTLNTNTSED", "chain of UniProt Q13404 (whole entry, looked up)": "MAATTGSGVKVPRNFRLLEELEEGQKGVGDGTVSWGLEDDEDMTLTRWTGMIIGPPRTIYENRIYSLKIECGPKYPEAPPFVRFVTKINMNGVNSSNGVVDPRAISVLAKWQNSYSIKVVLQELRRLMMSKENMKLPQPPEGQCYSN", "chain of UniProt Q8L7G0 (whole entry, looked up)": "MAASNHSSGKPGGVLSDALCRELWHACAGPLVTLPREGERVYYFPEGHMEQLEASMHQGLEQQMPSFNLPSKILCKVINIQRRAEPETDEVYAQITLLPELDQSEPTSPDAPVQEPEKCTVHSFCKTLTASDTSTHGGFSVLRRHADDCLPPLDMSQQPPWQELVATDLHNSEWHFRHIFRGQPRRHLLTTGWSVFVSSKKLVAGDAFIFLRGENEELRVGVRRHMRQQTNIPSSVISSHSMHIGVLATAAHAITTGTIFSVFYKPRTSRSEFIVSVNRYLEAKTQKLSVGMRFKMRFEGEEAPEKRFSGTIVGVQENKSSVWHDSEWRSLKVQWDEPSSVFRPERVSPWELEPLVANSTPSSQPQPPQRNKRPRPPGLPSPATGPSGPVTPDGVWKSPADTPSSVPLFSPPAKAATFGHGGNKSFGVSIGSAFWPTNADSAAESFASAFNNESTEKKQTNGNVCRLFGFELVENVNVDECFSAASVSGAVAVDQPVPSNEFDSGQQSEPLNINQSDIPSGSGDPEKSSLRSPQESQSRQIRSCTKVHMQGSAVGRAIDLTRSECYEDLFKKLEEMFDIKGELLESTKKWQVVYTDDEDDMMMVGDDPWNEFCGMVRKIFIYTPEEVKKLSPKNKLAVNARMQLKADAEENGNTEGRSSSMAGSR", "chain of UniProt O14933 (whole entry, looked up)": "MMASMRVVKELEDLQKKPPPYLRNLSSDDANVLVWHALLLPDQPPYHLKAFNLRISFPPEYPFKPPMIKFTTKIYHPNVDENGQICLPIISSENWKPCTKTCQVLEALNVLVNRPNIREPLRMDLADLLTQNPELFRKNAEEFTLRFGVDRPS", "chain of UniProt P60604 (whole entry, looked up)": "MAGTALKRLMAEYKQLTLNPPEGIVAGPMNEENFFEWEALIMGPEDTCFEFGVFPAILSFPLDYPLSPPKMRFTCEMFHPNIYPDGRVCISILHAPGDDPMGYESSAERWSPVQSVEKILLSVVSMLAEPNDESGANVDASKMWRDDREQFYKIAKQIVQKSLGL", "chain of UniProt Q9SKN5 (whole entry, looked up)": "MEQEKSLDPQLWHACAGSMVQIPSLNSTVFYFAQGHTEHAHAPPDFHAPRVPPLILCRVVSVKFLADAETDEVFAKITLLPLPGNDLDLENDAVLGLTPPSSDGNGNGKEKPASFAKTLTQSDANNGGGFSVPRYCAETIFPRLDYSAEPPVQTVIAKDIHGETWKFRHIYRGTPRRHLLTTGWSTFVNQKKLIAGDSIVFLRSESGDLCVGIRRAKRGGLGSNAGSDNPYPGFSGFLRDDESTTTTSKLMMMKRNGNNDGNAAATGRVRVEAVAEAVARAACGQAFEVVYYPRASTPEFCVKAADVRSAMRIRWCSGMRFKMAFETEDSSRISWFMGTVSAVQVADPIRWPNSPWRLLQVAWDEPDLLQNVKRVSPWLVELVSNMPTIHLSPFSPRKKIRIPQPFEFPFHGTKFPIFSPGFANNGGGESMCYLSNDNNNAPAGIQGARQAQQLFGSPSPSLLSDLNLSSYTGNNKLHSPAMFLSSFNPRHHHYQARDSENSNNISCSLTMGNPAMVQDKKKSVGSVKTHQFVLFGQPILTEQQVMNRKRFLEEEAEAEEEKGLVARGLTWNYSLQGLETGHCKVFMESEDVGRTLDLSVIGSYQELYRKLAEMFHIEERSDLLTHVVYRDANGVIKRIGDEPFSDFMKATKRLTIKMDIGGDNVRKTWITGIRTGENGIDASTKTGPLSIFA", "chain of UniProt P61088 (whole entry, looked up)": "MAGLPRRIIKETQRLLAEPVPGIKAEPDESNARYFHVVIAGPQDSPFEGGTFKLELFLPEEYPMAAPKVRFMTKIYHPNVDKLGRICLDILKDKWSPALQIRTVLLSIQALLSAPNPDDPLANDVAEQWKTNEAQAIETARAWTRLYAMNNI", "chain of UniProt Q84WU6 (whole entry, looked up)": "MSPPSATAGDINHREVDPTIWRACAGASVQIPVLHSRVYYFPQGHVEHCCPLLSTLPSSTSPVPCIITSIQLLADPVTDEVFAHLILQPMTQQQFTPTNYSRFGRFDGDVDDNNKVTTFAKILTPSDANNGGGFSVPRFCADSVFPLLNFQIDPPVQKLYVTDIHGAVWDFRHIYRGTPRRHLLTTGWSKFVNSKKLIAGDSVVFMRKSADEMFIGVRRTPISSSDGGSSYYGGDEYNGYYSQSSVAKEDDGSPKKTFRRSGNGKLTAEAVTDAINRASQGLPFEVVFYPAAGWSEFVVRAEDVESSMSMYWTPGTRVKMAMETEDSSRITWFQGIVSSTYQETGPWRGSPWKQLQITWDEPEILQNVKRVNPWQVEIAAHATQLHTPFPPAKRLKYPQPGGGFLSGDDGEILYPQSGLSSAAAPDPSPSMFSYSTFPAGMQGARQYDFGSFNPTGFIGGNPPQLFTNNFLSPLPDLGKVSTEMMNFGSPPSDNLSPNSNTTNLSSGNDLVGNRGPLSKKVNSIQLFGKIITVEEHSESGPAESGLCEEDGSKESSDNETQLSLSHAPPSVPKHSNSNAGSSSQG", "chain of UniProt P51965 (whole entry, looked up)": "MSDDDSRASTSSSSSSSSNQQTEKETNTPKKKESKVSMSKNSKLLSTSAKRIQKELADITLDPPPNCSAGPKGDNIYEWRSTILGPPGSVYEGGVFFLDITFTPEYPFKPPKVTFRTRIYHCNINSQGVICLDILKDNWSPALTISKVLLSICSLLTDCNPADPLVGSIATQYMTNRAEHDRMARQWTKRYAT"}
{"data": "Study 1", "Molecule": "B1 (IAA12)", "method": "two-hybrid", "reference": "out of 4 tests", "direction": "higher = firmer interaction", "B1": "IAA12 (Arabidopsis thaliana, UniProt Q38830); chain MRGVSELEVGKSNLPAESELELGLGLSLGGGAWKERGRILTAKDFPSVGSKRSAESSSHQGASPPRSSQVVGWPPIGLHRMNSLVNNQAMKAARAEEGDGEKKVVKNDELKDVSMKVNPKVQGLGFVKVNMDGVGIGRKVDMRAHSSYENLAQTLEEMFFGMTGTTCREKVKPLRLLDGSSDFVLTYEDKEGDWMLVGDVPWRMFINSVKRLRIMGTSEASGLAPRRQEQKDRQRNNPV"}
{"partner": "ARF14 497-605 (Arabidopsis thaliana, UniProt Q9LQE8)", "positive tests": 0}
{"partner": "ARF10 575-693 (Arabidopsis thaliana, UniProt Q9SKN5)", "positive tests": 0}
{"partner": "ARF1 538-665 (Arabidopsis thaliana, UniProt Q8L7G0)", "positive tests": 0}
{"partner": "ARF17 (Arabidopsis thaliana, UniProt Q84WU6)", "conditions": "weak activation fusion", "positive tests": 0}
{"partner": "IAA32 (Arabidopsis thaliana, UniProt Q8RYC6)", "positive tests": 0}
{"data": "Study 2", "Molecule": "BRCA1 RING domain (UniProt P38398)", "method": "yeast two-hybrid", "sample": "yeast", "setting": "mostly zero background", "reference": "not given", "direction": "higher = stronger interaction"}
{"target": "CDC34 UBC core domain (UniProt P49427)", "lacZ reporter activity": 0}
{"target": "UBE2U UBC core domain (UniProt Q5VVX9)", "lacZ reporter activity": 12600}
{"target": "UBE2H UBC core domain (UniProt P62256)", "lacZ reporter activity": 0}
{"target": "UBE2E1 UBC core domain (UniProt P51965)", "lacZ reporter activity": 0}
{"target": "UBE2L6 UBC core domain (UniProt O14933)", "lacZ reporter activity": 0}
{"target": "UBE2Q2 UBC core domain (UniProt Q8WVN8)", "lacZ reporter activity": 0}
{"target": "UBE2G2 UBC core domain (UniProt P60604)", "lacZ reporter activity": 0}
{"target": "UBE2E2 UBC core domain (UniProt Q96LR5)", "lacZ reporter activity": 0}
{"target": "UBE2V1 UBC core domain (UniProt Q13404)", "lacZ reporter activity": 0}
{"target": "UBE2N UBC core domain (UniProt P61088)", "lacZ reporter activity": 0}
{"target": "UBE2V2 UBC core domain (UniProt Q15819)", "lacZ reporter activity": 0}
{"data": "Study 3", "target": "Fragile X messenger ribonucleoprotein 1, C-terminal low-complexity region (Fmr1, Mus musculus, UniProt P35922)", "method": "RNA Bind-n-Seq", "molecule type": "RNA", "sample": "in vitro", "concentration": "200 nM", "setting": "whole 134-nt RNA, ends assumed", "together with": "150 mM KCl", "reference": "input library", "direction": "higher = stronger binding"}
{"Oligonucleotide": "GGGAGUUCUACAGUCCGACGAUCUCAAGUCCUGUGCUACACAUCGUAUGUACCGAAUCGGUUUGGUUUUUUUGGUGGAAAGUAUUAUGUUACGCCGUUCGGAUCUGCACUUCCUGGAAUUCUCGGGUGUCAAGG", "log2 enrichment": -0.256}
{"Oligonucleotide": "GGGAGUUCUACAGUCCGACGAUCCAAGUCCUGUGCUACACAUCGUAUGUACCGAAUCGUGUGUGUGUGUGUGUGUGUGUAAAGUAUUAUGUUACGCCGUUCGGAUCUGCACUUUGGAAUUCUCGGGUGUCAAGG", "log2 enrichment": 0.392}
{"Oligonucleotide": "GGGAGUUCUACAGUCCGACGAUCUCCUGUGCUACACAUCGUAUGUACCGAAUCGGGGAAAAAAGGGAAAAAAGGAAAAAAGGGAAAGUAUUAUGUUACGCCGUUCGGAUCUGCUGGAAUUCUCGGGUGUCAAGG", "log2 enrichment": -0.124}
{"Oligonucleotide": "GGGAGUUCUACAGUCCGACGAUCUCCUGUGCUACACAUCGUAUGUACCGAAUCGGCCCCCCGGGGCCCCCCGGCCCCCCGGGAAAGUAUUAUGUUACGCCGUUCGGAUCUGCAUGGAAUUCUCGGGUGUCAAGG", "log2 enrichment": -0.711}
{"Oligonucleotide": "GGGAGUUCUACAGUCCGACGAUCAUUAAUUUGUACACAGACAGGGAAACUGGCAAGCUGAAGGGAGAGGCAACGGUCUCUUUUGAUGACCCACCUUCAGCUAAAGCAGCUAUUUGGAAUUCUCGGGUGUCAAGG", "log2 enrichment": -0.835}
{"Oligonucleotide": "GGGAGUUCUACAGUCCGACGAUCGUCCUGUGCUACACAUCGUAUGUACCGAAUCGGGGUUUUUUUGGGGAGGGGAAAGGGGAAAGUAUUAUGUUACGCCGUUCGGAUCUGCACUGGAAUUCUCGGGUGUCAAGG", "log2 enrichment": 0.399}
{"Oligonucleotide": "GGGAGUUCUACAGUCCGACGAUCACCAUGCAGGUGGGCAAAAUUGGGAAGUGGGGCAAGGGGGGGAUAGGGAGGGGGGUAACACUUUGGGAACAGGUGGUCCCAGGUCGUUUCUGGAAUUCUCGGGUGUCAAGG", "log2 enrichment": 0.543}
{"Oligonucleotide": "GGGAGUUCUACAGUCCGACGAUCUAACUUUAGAGGAGGAUCUGAUGGAUAUGGCAGUGGACGUGGAUUUGGGGAUGGCUAUAAUGGGUAUGGUGGAGGACCUGGAGGUGGCAAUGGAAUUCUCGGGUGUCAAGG", "log2 enrichment": 0.27}
{"Oligonucleotide": "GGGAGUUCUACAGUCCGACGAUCUCCUGUGCUACACAUCGUAUGUACCGAAUCGGGUUUUUUUGGGAAAAAAAGGGUUUGGGAAAGUAUUAUGUUACGCCGUUCGGAUCUGCAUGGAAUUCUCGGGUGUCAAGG", "log2 enrichment": -0.419}
{"Oligonucleotide": "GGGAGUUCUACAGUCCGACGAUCAGUCCUGUGCUACACAUCGUAUGUACCGAAUCGGAAAAAGGAAAAAGGGAAAAAGGGAAAGUAUUAUGUUACGCCGUUCGGAUCUGCACUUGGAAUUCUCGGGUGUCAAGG", "log2 enrichment": -0.892}
{"Oligonucleotide": "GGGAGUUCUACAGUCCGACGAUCUGGCCCUGGUGGCAUGCGGGGAGGAAGCGGUGGCCUCAUGGAUCGUGGUGGUCCCGGUGGAAUGUUCAGAGGUGGCCGUGGUGGAGACAGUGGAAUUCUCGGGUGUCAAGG", "log2 enrichment": -0.194}
{"Oligonucleotide": "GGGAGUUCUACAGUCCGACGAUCGUCCUGUGCUACACAUCGUAUGUACCGAAUCGGUUUUUUGGUUUUUUGGGUUUUUUGGAAAGUAUUAUGUUACGCCGUUCGGAUCUGCACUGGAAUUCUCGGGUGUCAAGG", "log2 enrichment": -0.683}
{"Oligonucleotide": "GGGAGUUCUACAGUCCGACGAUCGCAGGAAAAAAAAACAAAUGGAAAUGCUUCGGAUAGUGGCAGGGGUGGGGGUUGCUAAGGAAAGGGUGGGAUGGGAGUGGGUAAAGAGUUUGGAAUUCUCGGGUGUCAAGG", "log2 enrichment": 0.666}
{"Oligonucleotide": "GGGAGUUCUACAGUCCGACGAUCUCCUGUGCUACACAUCGUAUGUACCGAAUCGGGGUGGGGUUUUUUUGGGGUUUUUGGGGAAAGUAUUAUGUUACGCCGUUCGGAUCUGCAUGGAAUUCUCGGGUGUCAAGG", "log2 enrichment": 0.997}
{"data": "Study 4", "target": "CCNE2, cyclin fold, Cln2 fusion (human)", "method": "yeast growth competition, sequencing", "sample": "yeast", "setting": "strong parent motif", "reference": "not given", "direction": "higher = stronger binding", "starting sequence": "RBL1 docking peptide (human); GSAKRRLFGEDPP"}
{"Substitution": "S2L", "normalised enrichment score": 2.7}
{"Substitution": "R6A", "normalised enrichment score": 1.38}
{"Substitution": "R6F", "normalised enrichment score": 1.29}
{"Substitution": "R5H", "normalised enrichment score": 0.78}
{"Substitution": "P13A", "normalised enrichment score": 4.33}
{"Substitution": "R5E", "normalised enrichment score": 0.212}
{"Substitution": "P12F", "normalised enrichment score": 3.7}
{"Substitution": "D11E", "normalised enrichment score": 4.71}
{"Substitution": "A3F", "normalised enrichment score": 3.6}
{"Substitution": "G9H", "normalised enrichment score": 5.11}
{"Substitution": "R5C", "normalised enrichment score": 0.198}
{"Substitution": "L7C", "normalised enrichment score": 1.23}
{"Substitution": "E10A", "normalised enrichment score": 3.21}
{"Substitution": "S2T", "normalised enrichment score": 4.21}
{"Substitution": "G9Q", "normalised enrichment score": 5.44}
{"Substitution": "L7H", "normalised enrichment score": 0.236}
{"Substitution": "S2F", "normalised enrichment score": 2.6}
{"Substitution": "F8P", "normalised enrichment score": 0.479}
{"data": "Study 5", "target": "Histone acetyltransferase KAT6A, winged helix 1, GST fusion (KAT6A, Homo sapiens, UniProt Q92794, residues 1-85)", "method": "protein binding microarray", "molecule type": "double-stranded DNA, one strand shown", "sample": "in vitro", "concentration": "not given", "setting": "8-mer, flanks averaged, mean of 2 arrays, mostly near background", "reference": "not given", "direction": "higher = stronger binding", "Target sequence (chain)": "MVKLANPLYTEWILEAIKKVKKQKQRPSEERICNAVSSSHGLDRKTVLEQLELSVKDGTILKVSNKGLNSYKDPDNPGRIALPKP"}
{"Oligonucleotide": "GATGTGAC", "E-score": 0.00908}
{"Oligonucleotide": "ACCCGGGT", "E-score": 0.355}
{"Oligonucleotide": "ATTTGACA", "E-score": -0.17}
{"Oligonucleotide": "GAAGGCAA", "E-score": -0.233}
{"Oligonucleotide": "CCGTCCGA", "E-score": 0.353}
{"Oligonucleotide": "GGCTTCTA", "E-score": 0.09}
{"Oligonucleotide": "CACCTACG", "E-score": 0.19}
{"Oligonucleotide": "CGATATAG", "E-score": 0.00278}
{"Oligonucleotide": "GAGGCCCA", "E-score": 0.0289}
{"Oligonucleotide": "AAAGTGTT", "E-score": -0.0451}
{"Oligonucleotide": "CCAGAAGG", "E-score": -0.161}
{"Oligonucleotide": "AGGAGTAA", "E-score": -0.0371}
{"Oligonucleotide": "CCCTTTTA", "E-score": -0.165}
{"Oligonucleotide": "GGTGATAC", "E-score": -0.021}
{"Oligonucleotide": "AGCCCACC", "E-score": 0.0619}
{"Oligonucleotide": "CAATCCGC", "E-score": 0.222}
{"data": "Study 6", "target": "ABI1, truncated, D143A, DHFR fusion (Arabidopsis thaliana)", "method": "DHFR PCA, deep sequencing", "sample": "yeast", "setting": "methotrexate growth selection, single substitutions", "together with": "(+)-ABA 58 µM", "reference": "wild-type fitted maximum", "direction": "higher = stronger binding", "starting sequence": "PYL1, truncated, DHFR fusion (Arabidopsis thaliana); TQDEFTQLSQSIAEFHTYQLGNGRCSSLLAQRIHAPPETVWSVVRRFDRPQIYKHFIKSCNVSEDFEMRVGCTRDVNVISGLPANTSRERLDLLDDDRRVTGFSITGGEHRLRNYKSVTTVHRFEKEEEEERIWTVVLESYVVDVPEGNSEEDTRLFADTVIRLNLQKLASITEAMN; partner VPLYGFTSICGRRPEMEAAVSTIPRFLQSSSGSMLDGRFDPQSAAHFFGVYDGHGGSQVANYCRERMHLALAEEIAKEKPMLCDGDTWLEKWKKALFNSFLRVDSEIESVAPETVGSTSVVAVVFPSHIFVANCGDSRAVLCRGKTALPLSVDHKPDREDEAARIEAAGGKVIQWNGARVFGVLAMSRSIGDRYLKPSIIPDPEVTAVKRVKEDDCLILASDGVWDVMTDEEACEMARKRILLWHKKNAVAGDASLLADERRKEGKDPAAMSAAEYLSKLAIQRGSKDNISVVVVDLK"}
{"Substitution": "S9Y", "relative binding score [%]": 67}
{"Substitution": "D159H", "relative binding score [%]": 26.4}
{"Substitution": "E109C", "relative binding score [%]": 74.2}
{"Substitution": "L164Y", "relative binding score [%]": 75.8}
{"Substitution": "L28Y", "relative binding score [%]": 47}
{"Substitution": "F103T", "relative binding score [%]": 9.68}
{"Substitution": "E127A", "relative binding score [%]": 88.8}
{"Substitution": "N149M", "relative binding score [%]": 21.7}
{"Substitution": "T86L", "relative binding score [%]": 60.2}
{"Substitution": "C60W", "relative binding score [%]": 4.85}
{"Substitution": "R132H", "relative binding score [%]": 96.5}
{"Substitution": "E14V", "relative binding score [%]": 65.3}
{"Substitution": "S9H", "relative binding score [%]": 77.4}
{"note": "For quick reference, copied from above (study 5):"}
{"Oligonucleotide": "ATTTGACA", "E-score": -0.17}
{"Oligonucleotide": "GAAGGCAA", "E-score": -0.233}
{"Oligonucleotide": "CCGTCCGA", "E-score": 0.353}
{"Oligonucleotide": "GGCTTCTA", "E-score": 0.09}
{"Oligonucleotide": "CACCTACG", "E-score": 0.19}
